Assay results from different studies.
Each line is one published result; not all experiments were run side by side.
Organism: Staphylococcus aureus

SMILES	test	system	conditions	MIC
CC[C@H](C)[C@H](NC(=O)[C@H](CC(=O)O)NC(=O)[C@H](Cc1ccccc1)NC(=O)[C@H](CC(C)C)NC(=O)CN)C(=O)N[C@H](C(=O)N[C@@H](CCCCN)C(=O)N[C@@H](CCCCN)C(=O)N[C@H](C(=O)N[C@@H](CC(C)C)C(=O)N[C@@H](CCCCN)C(=O)N[C@@H](CC(C)C)C(=O)N[C@@H](CC(C)C)C(=O)N[C@@H](CCCCN)C(N)=O)C(C)C)C(C)C	–	SH1000 GFP-expressing, nutrient broth	20 h, 37 °C	3.3 µM
NNc1ccc(Cl)cc1Cl	microbial growth	ATCC700699	drug-resistant strain	25 mg/L
COc1ccc2ccc3c(c2c1)C=[N+]1C2CCCCC2[N+]2=Cc4ccc(F)cc4[O][Au-]21[O]3.F[P-](F)(F)(F)(F)F (centres unmarked)	bacterial growth, broth microdilution	vancomycin-intermediate	24 h	> 20 µM
CN1CCNC1=S.CN1CCNC1=S.O=[N+]([O-])[O-].[Ag+].c1ccc(P(c2ccccc2)c2ccccc2)cc1	agar dilution	MTCC 740	24 h, 37 °C	10 mg/L
CN[C@@H]1[C@H](O)[C@H](NC)[C@H]2O[C@]3(O)[C@H](O[C@@H]2[C@H]1O)O[C@H](C)C[C@@]3(O)CNCc1ccc(OC(F)(F)F)cc1	–	MSSA ATCC 29213	–	100 mg/L
NC(=O)c1c(F)ccc(OCc2nc3cc(Cl)cnc3s2)c1F	microbial growth, broth dilution	ATCC29213	–	1 mg/L
CC(C)=CCc1c(O)ccc2c1O[C@H]1c3cc4c(cc3OC[C@@H]21)OC(C)(C)C=C4	–	–	–	inactive
CN1C(=O)[C@@H]2NC(=O)[C@@H]3NC(=O)[C@@H](c4ccc(O)cc4)NC(=O)[C@H](NC(=O)C(NCc4ccc(Br)cc4)c4ccc(O)cc4)Cc4c[nH]c5cc(ccc45)-c4cc3cc(c4O)Oc3ccc(cc3)C[C@H]1C(=O)N[C@@H](C(=O)O)c1ccc(O)c(c1)Oc1ccc2cc1 (some centres unmarked)	–	ATCC 33591 MRSA, Mueller-Hinton broth	–	4 mg/L
CC[C@H](C)[C@H](NC(=O)[C@H](CCCCN)NC(=O)[C@H](CCCCN)NC(=O)[C@H](Cc1ccccc1)NC(=O)[C@H](Cc1ccccc1)NC(=O)[C@H](CCCCN)NC(=O)[C@H](CCCCN)NC(=O)[C@H](Cc1ccccc1)NC(=O)[C@H](CCCNC(=N)N)NC(=O)[C@@H](N)CCCCN)C(=O)N[C@@H](CCCCN)C(=O)N[C@@H](CCCCN)C(=O)N[C@@H](CO)C(=O)N[C@H](C(=O)N[C@@H](CCCCN)C(=O)N[C@@H](CCCCN)C(=O)N[C@@H](CCCNC(=N)N)C(=O)N[C@H](C(=O)N[C@@H](CCCCN)C(=O)N[C@@H](CCCCN)C(=O)N[C@@H](CC(C)C)C(=O)N[C@@H](Cc1ccccc1)C(=O)N[C@@H](CCCCN)C(=O)N[C@@H](CCCCN)C(=O)N1CCC[C@H]1C(=O)N[C@@H](CCCNC(=N)N)C(=O)N[C@H](C(=O)N[C@H](C(=O)N1CCC[C@H]1C(=O)N[C@H](C(=O)N[C@@H](CO)C(=O)N[C@H](C(=O)N1CCC[C@H]1C(=O)N[C@@H](Cc1ccccc1)C(=O)O)[C@@H](C)CC)[C@@H](C)CC)[C@@H](C)CC)C(C)C)C(C)C)C(C)C	–	ATCC 29213	20 h	16 mg/L
NC[C@@H]1O[C@H](O[C@H]2[C@@H](O)[C@H](O[C@@H]3[C@@H](O)[C@H](N)C[C@H](N)[C@H]3O[C@H]3O[C@H](CO)[C@@H](SCCF)[C@H](O)[C@H]3N)O[C@@H]2CO)[C@H](N)[C@@H](O)[C@@H]1O	–	methicillin-resistant, AAC(6') ANT(4',4'') APH(3')	–	4 to 8 mg/L
CC[C@H](C)[C@@H]1NC(=O)[C@@H](CN)NC(=O)CNC(=O)[C@H](CC(=O)O)NC(=O)CNC(=O)[C@H](CC(=O)O)NC(=O)CNC(=O)[C@H]2CCCCN2C(=O)[C@@H](NC(=O)[C@H](CC(=O)O)NC(=O)/C=C/CCCCCCCCCC(C)C)CNC(=O)[C@@H]2CCCN2C1=O	–	MRSA USA300	16 h, 37 °C, with: Ca2+ 10 mM	4 mg/L
CC[C@H](C)[C@H](NC(=O)[C@H](CCCNC(=N)N)NC(=O)[C@H](CC(C)C)NC(=O)[C@H](CC(C)C)NC(=O)[C@H](C)NC(=O)[C@@H](NC(=O)[C@H](CCCCN)NC(=O)[C@H](CCCCN)NC(=O)[C@H](C)NC(=O)[C@@H](NC(=O)[C@H](Cc1c[nH]c2ccccc12)NC(=O)[C@@H](NC(=O)[C@H](Cc1ccc(O)cc1)NC(=O)[C@H](Cc1ccccc1)NC(=O)[C@H](CC(=O)O)NC(=O)[C@H](Cc1ccc(O)cc1)NC(=O)[C@@H](NC(=O)[C@H](CC(C)C)NC(=O)[C@H](CO)NC(=O)[C@H](C)NC(=O)[C@H](C)NC(=O)[C@@H](NC(=O)[C@@H](NC(=O)[C@@H](N)CC(C)C)[C@@H](C)CC)C(C)C)C(C)C)[C@@H](C)O)[C@@H](C)CC)C(C)C)C(=O)N[C@@H](C)C(=O)N[C@@H](CCCCN)C(=O)N[C@@H](CCCCN)C(=O)N[C@H](C(=O)N[C@@H](CC(C)C)C(=O)N[C@@H](Cc1ccc(O)cc1)C(=O)N[C@@H](CC(C)C)C(=O)N[C@@H](C)C(=O)N[C@@H](CCCNC(=N)N)C(=O)N[C@@H](CC(N)=O)C(=O)N[C@@H](C)C(=O)O)C(C)C	–	ATCC 25923	24 h	4 µM
CC(C)C[C@@H]1NC(=O)[C@H](C)NC(=O)[C@H](NC(=O)[C@H](CO)NC(=O)[C@@H](CCCCN)NC(=O)[C@@H](CC(C)C)N(C)C(=O)[C@@H](N)Cc2ccccc2)[C@H](C)OC(=O)[C@H](CC(C)C)NC1=O	–	MRSA ATCC 700698	TFA salt	> 32 mg/L
CC[C@H](C)[C@H](NC(=O)[C@@H](Cc1ccccc1)NC)C(=O)OC[C@H](N)C(=O)N[C@H](CCC(N)=O)C(=O)N[C@@H](C(=O)N[C@H](C(=O)OC[C@H](N)C(=O)N[C@H]1C(=O)N[C@@H](C)C(=O)N[C@@H](C2CCCCC2)C(=O)N[C@@H]([C@@H](C)CC)C(=O)O[C@H]1C)[C@@H](C)CC)[C@@H](C)CC	broth microdilution	ATCC 700698, MRSA, brain heart infusion broth	16 h, 37 °C	1 mg/L
N=C(N)NCCC[C@@H]1NC(=O)[C@H](CCCCN)NC(=O)[C@H](CCCNC(=N)N)NC(=O)[C@H](CCCNC(=N)N)NC(=O)[C@H](CCCNC(=N)N)NC(=O)[C@H](CCCNC(=N)N)NC1=O	broth microdilution	MRSA ATCC 43300	37 °C	> 114 mg/L
Oc1ccccc1C1Nc2ccccc2C2=[O+][Cu-2]3([Cl])[O]c4ccccc4C=[N+]3N21 (centres unmarked)	broth microdilution	MRSA clinical isolate SA 630	24 h, 37 °C	8 mg/L
CC[C@H](C)[C@H](N)C1=N[C@H](C(=O)N[C@@H](CC(C)C)C(=O)N[C@H](CCC(=O)O)C(=O)N[C@H](C(=O)N[C@H]2CCCCNC(=O)[C@H](CC(N)=O)NC(=O)[C@@H](CC(=O)O)NC(=O)[C@H](Cc3c[nH]cn3)NC(=O)[C@@H](Cc3ccc(-c4ccccc4)cc3)NC(=O)[C@H]([C@@H](C)CC)NC(=O)[C@@H](CCCN)NC2=O)[C@@H](C)CC)CS1	–	USA300 MRSA	18 h, 37 °C, with: ZnSO4 0.3 mM	0.25 mg/L
CCCCCCCCCCCCCCCc1cc(O)cc(O)c1	microbial growth, broth dilution	USA300	drug-resistant strain	> 64 mg/L
NCCCC[C@@H]1NC(=O)[C@@H](CCCCN)NC(=O)[C@H](CCCCN)NC(=O)[C@@H](CCCCN)NC(=O)[C@H](Cc2c[nH]c3ccccc23)NC(=O)[C@@H](Cc2c[nH]c3ccccc23)NC(=O)[C@H](Cc2c[nH]c3ccccc23)NC(=O)[C@@H](Cc2c[nH]c3ccccc23)NC(=O)[C@@H](N)CSCc2ccc(cc2)CSC[C@@H](C(N)=O)NC(=O)[C@@H](CCCCN)NC1=O	–	COL MRSA	–	32 to 64 mg/L
COc1ccc2ccc3c(c2c1)C=[N+]1C2CCCCC2[N+]2=Cc4cccc(F)c4[O][Au-]21[O]3.F[P-](F)(F)(F)(F)F (centres unmarked)	bacterial growth, broth microdilution	vancomycin-intermediate	24 h	> 20 µM
CCO[C@H]1[C@H](O)[C@@H](N)[C@@H](O[C@H]2[C@H](O[C@@H]3O[C@H](CO)[C@@H](O[C@H]4O[C@@H](CN)[C@@H](O)[C@H](O)[C@H]4N)[C@H]3O)[C@@H](O)[C@H](N)C[C@@H]2N)O[C@@H]1CO	broth microdilution	MRSA isolate AG 042	–	8 to 16 mg/L
CC[C@H](C)[C@H](NC(=O)[C@H](CCCCN)NC(=O)[C@H](CC(N)=O)NC(=O)[C@H](Cc1c[nH]c2ccccc12)NC(=O)[C@H](Cc1ccccc1)NC(=O)[C@H](CCCCN)NC(=O)[C@H](CCCNC(=N)N)NC(=O)[C@H](CC(C)C)NC(=O)[C@H](Cc1c[nH]c2ccccc12)NC(=O)[C@H](CCCCN)NC(=O)[C@H](CCCNC(=N)N)NC(=O)[C@H](CC(C)C)NC(=O)CNC(C)=O)C(=O)N[C@@H](CCCCN)C(=O)N[C@@H](CCCNC(=N)N)C(N)=O	broth microdilution	multidrug-resistant	–	3.12 µM
CCCCCCCCCCCN1C(=O)/C(=N\NC(=N)N)c2cc(C)ccc21	broth microdilution	BAA41 MRSA	18 h, 37 °C	6 mg/L
O=C(O)c1ccc(-n2cc(/C=N/Nc3cccc(Cl)c3F)c(-c3ccc4ccccc4c3)n2)cc1	microbial growth	ATCC33591	drug-resistant strain	12.5 mg/L
CC(=O)OCc1cc(-c2nc3ccccc3n(-c3ccc([N+](=O)[O-])cc3[N+](=O)[O-])c2=O)nn1-c1ccccc1	microbial growth	ATCC25923	–	> 500 mg/L
Cc1cc(=O)nc(NC(=O)NCCCCCCNC(=O)NCCCCCCNC(=O)OCCOCCOCCOCCOCCOCCOCC(=O)N[C@@H](CCCCN)C(=O)N[C@@H](CCCCN)C(=O)N[C@@H](Cc2ccccc2)C(=O)N2CCC[C@H]2C(=O)N[C@@H](Cc2c[nH]c3ccccc23)C(=O)N[C@@H](Cc2c[nH]c3ccccc23)C(=O)N[C@@H](Cc2c[nH]c3ccccc23)C(=O)N2CCC[C@H]2C(=O)N[C@@H](Cc2ccccc2)C(=O)N[C@@H](CCCCN)C(=O)N[C@@H](CCCCN)C(N)=O)[nH]1	–	MRSA AMC 201, RPMI medium	24 h, 37 °C	30 µM
CC(C)C[C@H](NC(=O)[C@H](CC(C)C)NC(=O)[C@H](CCCNC(=N)N)NC(=O)CCCCCNC(=O)/C=C/c1ccc(O)c(O)c1)C(=O)N[C@@H](CCCNC(=N)N)C(N)=O	broth microdilution	ATCC 25923	24 h, 37 °C	60 µM
CCCCCCCCCCCCCC(=O)N[C@H](CCN)C(=O)N[C@H](C(=O)N[C@@H](CCN)C(=O)N[C@@H](CC(C)C)C(=O)N[C@H]1CCNC(=O)[C@H](CC(=O)O)NC(=O)[C@H](C(C)C)NC(=O)[C@@H](Cc2ccc(O)cc2)NC(=O)[C@H](CCN)NC(=O)[C@H](CC(C)C)NC(=O)[C@@H](Cc2ccccc2)NC1=O)[C@@H](C)O	broth microdilution	BNCC 186335	–	4 mg/L
CC[C@@H](C)[C@H](NC(=O)[C@H](C)NC(=O)[C@H](CCCCN)NC(=O)[C@H](CC(C)C)NC(=O)[C@H](C)NC(=O)[C@@H](NC(=O)[C@H](Cc1c[nH]cn1)NC(=O)[C@H](CC(C)C)NC(=O)[C@@H](NC(=O)[C@@H](NC(=O)[C@H](CCCCN)NC(=O)[C@H](CCCCN)NC(=O)[C@H](C)NC(=O)[C@H](CO)NC(=O)[C@H](CCCCN)NC(=O)[C@H](Cc1ccccc1)NC(=O)[C@@H](NC(=O)[C@H](CCCCN)NC(=O)[C@H](CC(C)C)NC(=O)[C@H](Cc1ccccc1)NC(=O)[C@H](CO)NC(=O)[C@H](CCCCN)NC(=O)[C@H](Cc1c[nH]c2ccccc12)NC(=O)[C@H](CCCCN)NC(C)=O)[C@@H](C)O)[C@@H](C)O)C(C)C)[C@@H](C)O)C(=O)N[C@@H](CO)C(=O)N[C@@H](CO)C(N)=O	broth dilution	ATCC 25923, Mueller-Hinton broth	24 h, 37 °C	8 mg/L

For quick reference, copied from above:
SMILES	test	system	conditions	MIC
CC[C@H](C)[C@H](N)C1=N[C@H](C(=O)N[C@@H](CC(C)C)C(=O)N[C@H](CCC(=O)O)C(=O)N[C@H](C(=O)N[C@H]2CCCCNC(=O)[C@H](CC(N)=O)NC(=O)[C@@H](CC(=O)O)NC(=O)[C@H](Cc3c[nH]cn3)NC(=O)[C@@H](Cc3ccc(-c4ccccc4)cc3)NC(=O)[C@H]([C@@H](C)CC)NC(=O)[C@@H](CCCN)NC2=O)[C@@H](C)CC)CS1	–	USA300 MRSA	18 h, 37 °C, with: ZnSO4 0.3 mM	0.25 mg/L
CCCCCCCCCCCCCCCc1cc(O)cc(O)c1	microbial growth, broth dilution	USA300	drug-resistant strain	> 64 mg/L
NCCCC[C@@H]1NC(=O)[C@@H](CCCCN)NC(=O)[C@H](CCCCN)NC(=O)[C@@H](CCCCN)NC(=O)[C@H](Cc2c[nH]c3ccccc23)NC(=O)[C@@H](Cc2c[nH]c3ccccc23)NC(=O)[C@H](Cc2c[nH]c3ccccc23)NC(=O)[C@@H](Cc2c[nH]c3ccccc23)NC(=O)[C@@H](N)CSCc2ccc(cc2)CSC[C@@H](C(N)=O)NC(=O)[C@@H](CCCCN)NC1=O	–	COL MRSA	–	32 to 64 mg/L
COc1ccc2ccc3c(c2c1)C=[N+]1C2CCCCC2[N+]2=Cc4cccc(F)c4[O][Au-]21[O]3.F[P-](F)(F)(F)(F)F (centres unmarked)	bacterial growth, broth microdilution	vancomycin-intermediate	24 h	> 20 µM
